Assay results of several laboratories.
Parts stem from different laboratories: compare values within a part only. Positions count from the first letter of the parent shown.

Series 1
Target: TEF, bZIP domain (human)
Technique: DHFR protein complementation
Matrix: yeast
Setting: single substitutions, most at no-binding floor
Relative to: wild-type JUN-FOS pair
Direction: higher = stronger binding
Parent: JUN, bZIP domain (human); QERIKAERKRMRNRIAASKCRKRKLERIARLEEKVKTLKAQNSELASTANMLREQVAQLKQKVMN; partner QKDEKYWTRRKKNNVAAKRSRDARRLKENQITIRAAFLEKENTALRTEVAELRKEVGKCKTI
With `A46P` the binding fitness was -1.44 natural log.
The binding fitness of `L59H` is reported as -1.5 natural log.
The binding fitness of `S47R` is reported as -1.32 natural log.
With `E44L` the binding fitness was -1.44 natural log.
`R30P` gave a binding fitness of -1.55 natural log.
`A29S` has a binding fitness of -1.33 natural log.
The binding fitness of `A46N` is reported as -1.52 natural log.
The binding fitness of `A46F` is reported as -1.34 natural log.
`S47H` gave a binding fitness of -1.41 natural log.
The binding fitness of `I28A` is reported as -1.41 natural log.
For `A49P`, the binding fitness was -1.53 natural log.
The binding fitness of `E32T` is reported as -1.35 natural log.
`L52F` has a binding fitness of -1.4 natural log.
`L31W` has a binding fitness of -1.5 natural log.
`E33N` has a binding fitness of -1.53 natural log.
The binding fitness of `A46S` is reported as -1.47 natural log.
For `K39W`, the binding fitness was -1.44 natural log.
The binding fitness of `E32N` is reported as -1.3 natural log.
With `A49N` the binding fitness was -1.46 natural log.
`V35L` has a binding fitness of -1.51 natural log.
`A46L` has a binding fitness of -1.47 natural log.
`Q55R` gave a binding fitness of -1.35 natural log.
`R30Q` gave a binding fitness of -1.57 natural log.
With `V56R` the binding fitness was -1.56 natural log.

Series 2
Target: Centromere-binding protein 1, full length, N-terminal tag (CBF1, Saccharomyces cerevisiae, UniProt P17106, residues 1-351)
Chain of UniProt P17106 (whole entry, looked up): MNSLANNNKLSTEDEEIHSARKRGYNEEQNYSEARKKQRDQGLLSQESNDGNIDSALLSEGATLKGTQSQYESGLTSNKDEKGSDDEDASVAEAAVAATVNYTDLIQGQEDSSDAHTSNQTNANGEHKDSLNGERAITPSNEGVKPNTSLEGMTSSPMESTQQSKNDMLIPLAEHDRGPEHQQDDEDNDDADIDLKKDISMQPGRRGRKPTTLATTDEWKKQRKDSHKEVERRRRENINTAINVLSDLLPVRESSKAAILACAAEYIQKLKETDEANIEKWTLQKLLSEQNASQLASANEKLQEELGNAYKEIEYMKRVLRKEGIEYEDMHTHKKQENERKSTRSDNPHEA
Technique: protein-binding microarray
Molecule type: double-stranded DNA, one strand shown
Matrix: in vitro
Tested at: 0.8 µM
Setting: whole 60-bp probe, no competitor
Direction: higher = stronger binding
`GAAACTTTACCTTATCAACTGATATTTGAAGATTAGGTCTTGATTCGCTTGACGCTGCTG` gave a fluorescence intensity of 547 a.u.
For `CTAACGGTGTATAATCACGATCATATATCATATTTCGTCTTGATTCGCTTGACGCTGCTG`, the fluorescence intensity was 579 a.u.
For `GAACCATCGAACTATCTGGTGGCAAAATTGGCCTAGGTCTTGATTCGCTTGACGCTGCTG`, the fluorescence intensity was 517 a.u.
`GAAGATTGGCTGAGTCACCTTCATCGCGTCCACTAGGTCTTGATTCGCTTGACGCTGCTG` has a fluorescence intensity of 526 a.u.
`CTAGTCATAATTTCACGTGTTATAATAGCCATGTTCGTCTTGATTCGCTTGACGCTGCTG` has a fluorescence intensity of 3080 a.u.
With `CCTAACTACTATAATCACAACATATAGCTTCGTACAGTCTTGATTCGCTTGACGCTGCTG` the fluorescence intensity was 549 a.u.
For `GAAAGCGGCTTACATCAGACATCTTTTCTCGAATAGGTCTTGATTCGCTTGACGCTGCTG`, the fluorescence intensity was 506 a.u.
With `GAAGAAATGAGAAATCTCAGCTGAGTTATTTAATAGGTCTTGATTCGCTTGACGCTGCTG` the fluorescence intensity was 497 a.u.
With `GAAAATAGGAAACGTGACGGCAGAAACGCATTCTAGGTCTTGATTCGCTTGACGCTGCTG` the fluorescence intensity was 2920 a.u.
The fluorescence intensity of `CTACATAATCTCGCGCACGCTCTTGCTATTGACTTCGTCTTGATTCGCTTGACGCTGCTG` is reported as 570 a.u.
The fluorescence intensity of `CTAAGGTAATTACCTAACGTCACCCACTGAAATTTCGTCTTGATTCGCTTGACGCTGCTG` is reported as 505 a.u.
`GAAAAATTGTATGCTGACGTCAACTTTTTATTATAGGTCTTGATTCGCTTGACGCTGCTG` gave a fluorescence intensity of 504 a.u.
With `CTAATTGATCAAGGCCACATGCAAAATAGGGAATTCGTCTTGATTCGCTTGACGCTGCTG` the fluorescence intensity was 598 a.u.
The fluorescence intensity of `CTAGCCTTTTACCGTGGTGCGAAGCATATTGAGTTCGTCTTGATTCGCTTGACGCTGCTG` is reported as 543 a.u.
For `GAATATTTGTAAGGAAACGTGCTTTCCTCTTCATAGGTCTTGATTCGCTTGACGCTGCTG`, the fluorescence intensity was 649 a.u.
`CTAGTGTAAAAAGATCACATAAAGATTGAAAAATTCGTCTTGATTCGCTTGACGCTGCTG` gave a fluorescence intensity of 550 a.u.
`CTACTATGGGTGGCGAACGTGGTGGGCGTTACCTTCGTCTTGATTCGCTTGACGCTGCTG` gave a fluorescence intensity of 509 a.u.
For `CCTAACTACTATAACCAGGTGAGATAGCTTCGTACAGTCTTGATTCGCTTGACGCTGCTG`, the fluorescence intensity was 536 a.u.
The fluorescence intensity of `CTAGCAAGTTAATGTCACGGCAGCTAGTGACGCTTCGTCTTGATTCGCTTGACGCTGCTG` is reported as 574 a.u.
`GAACTCCGGCCATCGTGGGTGACATTCGTATAGTAGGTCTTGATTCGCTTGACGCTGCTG` gave a fluorescence intensity of 498 a.u.
With `GAAAACTTGTTATTCAGCGTGAAGAACGATATTTAGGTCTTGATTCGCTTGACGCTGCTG` the fluorescence intensity was 536 a.u.

Series 3
Target: Sal-like protein 4, full length isoform A (SALL4, Homo sapiens, UniProt Q9UJQ4, residues 1-1053)
Chain of UniProt Q9UJQ4 (whole entry, looked up): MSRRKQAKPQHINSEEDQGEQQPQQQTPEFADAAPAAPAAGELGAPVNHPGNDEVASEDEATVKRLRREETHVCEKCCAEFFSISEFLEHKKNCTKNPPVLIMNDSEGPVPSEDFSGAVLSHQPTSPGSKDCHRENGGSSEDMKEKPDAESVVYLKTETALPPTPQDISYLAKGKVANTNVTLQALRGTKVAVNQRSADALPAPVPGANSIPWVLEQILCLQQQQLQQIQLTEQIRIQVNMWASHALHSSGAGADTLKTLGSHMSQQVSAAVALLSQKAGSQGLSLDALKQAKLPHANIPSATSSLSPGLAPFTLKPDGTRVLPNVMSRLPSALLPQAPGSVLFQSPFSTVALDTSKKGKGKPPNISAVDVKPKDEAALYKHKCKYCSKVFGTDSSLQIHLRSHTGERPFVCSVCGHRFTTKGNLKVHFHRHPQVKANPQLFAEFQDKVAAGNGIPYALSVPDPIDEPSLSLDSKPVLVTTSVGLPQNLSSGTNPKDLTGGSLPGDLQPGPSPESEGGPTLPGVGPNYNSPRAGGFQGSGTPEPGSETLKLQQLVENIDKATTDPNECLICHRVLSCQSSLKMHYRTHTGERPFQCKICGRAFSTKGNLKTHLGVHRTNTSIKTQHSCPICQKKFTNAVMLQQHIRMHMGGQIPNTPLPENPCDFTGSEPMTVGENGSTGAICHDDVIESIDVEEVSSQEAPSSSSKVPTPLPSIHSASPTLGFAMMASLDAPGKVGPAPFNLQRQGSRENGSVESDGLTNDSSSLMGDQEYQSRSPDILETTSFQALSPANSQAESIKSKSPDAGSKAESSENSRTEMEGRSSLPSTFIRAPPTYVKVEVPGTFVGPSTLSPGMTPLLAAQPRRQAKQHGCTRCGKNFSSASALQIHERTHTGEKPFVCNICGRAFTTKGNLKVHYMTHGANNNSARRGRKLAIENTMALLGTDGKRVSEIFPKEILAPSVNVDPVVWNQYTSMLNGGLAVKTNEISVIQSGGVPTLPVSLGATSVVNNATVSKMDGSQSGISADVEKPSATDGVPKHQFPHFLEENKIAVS
Technique: universal PBM
Molecule type: double-stranded DNA, one strand shown
Matrix: in vitro
Tested at: 600 nM
Setting: 8-mer, flanks averaged, mean of replicates
Direction: higher = stronger binding
With `CTAGCGAA` the E-score was -0.136.
For `GTACCCTA`, the E-score was -0.00272.
`ACTCCGAT` has an E-score of -0.0316.
For `GTGCCTCA`, the E-score was -0.242.
With `ACCTCAAC` the E-score was -0.0344.
With `GCCATTCA` the E-score was -0.036.
`GGCTTGCA` gave an E-score of -0.109.
With `CAGTAGAA` the E-score was 0.0649.
The E-score of `TACTATAA` is reported as 0.36.
For `ATGTTAAT`, the E-score was 0.279.
With `TAGGTAGA` the E-score was 0.101.
`GTAGGCGA` gave an E-score of -0.168.
For `CCCGAGAC`, the E-score was -0.311.
The E-score of `AAATAATC` is reported as 0.354.
With `ACTCAAAG` the E-score was 0.0542.
`AACACACT` gave an E-score of 0.0215.
For `CTCTAGTC`, the E-score was -0.183.

Series 4
Organism: Saccharomyces cerevisiae
Observed: cell growth
Technique: competitive growth deep sequencing
Molecule type: peptide
Setting: peptide tiling library
With: cyclin F-Cln2 fusion
Direction: direction not given
The enrichment score of `YLYLLLTQSLWCRV` is reported as 0.729.
With `KVRRNLFNQELLSP` the enrichment score was 2.99.
For `SNFFDVIKQLFSDEKN`, the enrichment score was 0.651.
`HPESPPRKRLKSKGSD` has an enrichment score of 5.27.
With `QNPCGSKACRRLFGPV` the enrichment score was 2.8.
With `ESSQLTVQAEFDMSAI` the enrichment score was 0.558.
The enrichment score of `NEGVSNAVRRSLYIRD` is reported as 0.671.
The enrichment score of `NSMKELNFSHLPSNSV` is reported as 0.523.
With `QYQVVDDIVSKLVFDF` the enrichment score was 0.268.
`GPVKLEFDVSDGAT` has an enrichment score of 1.48.
For `AKRSLGFLPQPVPL`, the enrichment score was 1.42.
`ATNSSHTDAHEILVSD` has an enrichment score of 0.141.
The enrichment score of `PHKTFRKLRLFDTPHT` is reported as -0.135.
With `RTEALEQGGLPKKLIF` the enrichment score was 2.12.

Series 5
Target: Histone acetyltransferase KAT6A, winged helix 1, GST fusion (KAT6A, Homo sapiens, UniProt Q92794, residues 1-85)
Technique: protein binding microarray
Molecule type: double-stranded DNA, one strand shown
Matrix: in vitro
Tested at: not given
Setting: 8-mer, flanks averaged, mean of 2 arrays, mostly near background
Relative to: not given
Direction: higher = stronger binding
Residues (chain): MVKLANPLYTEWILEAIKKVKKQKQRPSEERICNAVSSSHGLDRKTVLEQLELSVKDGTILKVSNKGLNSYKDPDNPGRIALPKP
For `GGCAGTAA`, the E-score was 0.0793.
The E-score of `GACATGGA` is reported as -0.185.
For `AGTAAGGA`, the E-score was -0.0882.
With `CCGCTGGA` the E-score was 0.232.
The E-score of `GGTCCACA` is reported as -0.213.
With `ACTTCCAA` the E-score was -0.255.
For `AGCCTAAG`, the E-score was -0.244.
With `ATCAAGTG` the E-score was -0.164.
`CAGGGAGC` gave an E-score of -0.0739.
`TAGTGTAA` has an E-score of 0.0291.
`GCGAGTCA` gave an E-score of 0.0585.
With `ACCTCGCG` the E-score was 0.258.
`CAGTTCTC` gave an E-score of -0.121.
The E-score of `GACACACC` is reported as -0.0334.
For `CTCGCACC`, the E-score was -0.0568.
For `CCTTTGGA`, the E-score was -0.185.
With `CGGCAGTC` the E-score was 0.223.
For `GTACAAAA`, the E-score was -0.122.
`AGGAATCA` gave an E-score of -0.0914.
`AATGATTG` has an E-score of -0.225.
`GACCCATA` gave an E-score of -0.103.
For `CGGAATGC`, the E-score was 0.19.
`CCCTGGCC` gave an E-score of 0.0449.

Repeated from above (series 1):
`R30P` gave a binding fitness of -1.55 natural log.
`A29S` has a binding fitness of -1.33 natural log.
The binding fitness of `A46N` is reported as -1.52 natural log.
The binding fitness of `A46F` is reported as -1.34 natural log.
`S47H` gave a binding fitness of -1.41 natural log.
The binding fitness of `I28A` is reported as -1.41 natural log.
For `A49P`, the binding fitness was -1.53 natural log.
The binding fitness of `E32T` is reported as -1.35 natural log.
`L52F` has a binding fitness of -1.4 natural log.
`L31W` has a binding fitness of -1.5 natural log.
`E33N` has a binding fitness of -1.53 natural log.
The binding fitness of `A46S` is reported as -1.47 natural log.
